Published values from different studies.
Compare with care: the assays were run in different laboratories. Numbers after ± are the reported error.

With `COc1ccc(Nc2nc(Nc3ccc(OCCOCC[18F])cc3)ncc2Br)cc1` the tissue uptake was 0.57 ± 0.09 %ID (ICR mice, S180 tumour, stomach; intravenous, 30 min, added: PF-562271 33 mg/kg oral block).
For `O=C(NCC1OC2CCC=CCCC2O1)c1ccc([18F])nc1` (centres unmarked), the tissue uptake was 1.3 ± 0.1 %ID/g (healthy female BALB/c nude mice, kidneys; intravenous, 7.4 MBq per mouse, 120 min).
`CC(C)C[C@H](NC(=O)[C@@H](CCCCNC(=O)[C@@H](Cc1ccccc1)NC(=O)CCCCCCCNC(=O)CN1CCN(CC(=O)O)CCN(CC(=O)O)CCN(CC(=O)O)CC1)NC(=O)[C@H](Cc1ccc(O)cc1)NC(=O)[C@H](CO)NC(=O)[C@H](Cc1c[nH]c2ccccc12)NC(=O)[C@H](Cc1c[nH]cn1)NC(=O)[C@@H]1CCC(=O)N1)C(=O)N[C@@H](CCCNC(=N)N)C(=O)N1CCC[C@H]1C(=O)NCC(N)=O` [indium-111 labelled] gave a tissue uptake of 0.03 ± 0.03 %ID/g (biodistribution; male athymic nude mice, DU-145 prostate cancer xenograft, brain; intravenous, 0.037 MBq, 4 h post-injection).
For `O=C(NCC1OC2CCC=CCCC2O1)c1ccc(COCCOCCOCC[18F])cc1` (centres unmarked), the tissue uptake was 3.2 ± 0.6 %ID/g (healthy female BALB/c nude mice, bladder; intravenous, 7.4 MBq per mouse, 30 min).
For `CCCC[C@H](NC(=O)COCCOCCNC(=O)CN1CCN(CC(=O)O)CCN(CC(=O)O)CC1)C(=O)N[C@H]1CC(=O)NCCCC[C@@H](C(N)=O)NC(=O)[C@H](Cc2c[nH]c3ccccc23)NC(=O)[C@H](CCCNC(=N)N)NC(=O)[C@@H](Cc2ccccc2)NC(=O)[C@H](Cc2c[nH]cn2)NC1=O` [fluorine-18 labelled], the tissue uptake was 11.7 ± 1.56 %ID/g (C57 mice B16-F10 melanoma, tumor; intravenous, 0.37 MBq, 2 h).
With `O=C([O-])CN1CCN(CC(=O)[O-])CCN(CC(=O)NC[C@H]2CC[C@H](C(=O)N[C@H](Cc3cnc4ccccc4c3)C(=O)NCCCC[C@H](NC(=O)N[C@@H](CCC(=O)O)C(=O)O)C(=O)O)CC2)CCN(CC(=O)[O-])CC1.[64Cu+2]` the tissue uptake was 0.36 %ID/g (ex vivo gamma counting; 22Rv1 tumour-bearing mice, brain; intravenous, 0.74 MBq, 1 h post-injection).
The tissue uptake of `CCCC[C@H](NC(=O)CCCCCCCNC(=O)CN1CCN(CC(=O)O)CCN(CC(=O)O)CC1)C(=O)N[C@H]1CC(=O)NCCCC[C@@H](C(N)=O)NC(=O)[C@H](Cc2c[nH]c3ccccc23)NC(=O)[C@H](CCCNC(=N)N)NC(=O)[C@@H](Cc2ccccc2)NC(=O)[C@H](Cc2c[nH]cn2)NC1=O` [fluorine-18 labelled] is reported as 0.43 ± 0.16 %ID/g (C57 mice B16-F10 melanoma, pancreas; intravenous, 0.37 MBq, 0.5 h).
`Cc1cc(C)n(CCN(CCN)CCCCCCNC(=O)[C@@H](N)Cc2c[nH]c3ccccc23)n1.[99Tc+].[C-]#[O+].[C-]#[O+].[C-]#[O+]` has a tissue uptake of 12.9 ± 1.39 %IA/g (BALB/c nude mice, A549 xenograft, kidney; intravenous, 15 min).
The tissue uptake of `N#C[C@@H]1CCCN1C(=O)CNC(=O)c1ccnc2ccc(OCCCN3CCN(C(=O)CCc4ccc5c(c4)CN4CCN6CC(=O)[O][68Ga-]([O]C(=O)C4)([O]5)[O]c4ccc(CCC(=O)N5CCN(CCCOc7ccc8nccc(C(=O)NCC(=O)N9CCC[C@H]9C#N)c8c7)CC5)cc4C6)CC3)cc12` is reported as 1.67 ± 0.8 %ID/g (BALB/c nude mice, U-87 MG xenograft, stomach; 1 h, blocking, added: DOTA-FAPI-04 40 nmol/mouse co-injected).
The tissue uptake of `Cc1cc(C)n(CCN(CCN)CCCCCCNC(=O)[C@@H](N)Cc2c[nH]cn2)n1.[99Tc+].[C-]#[O+].[C-]#[O+].[C-]#[O+]` is reported as 0.24 ± 0.08 %IA/g (BALB/c nude mice, MCF7 xenograft, blood; intravenous, 4 h).
The tissue uptake of `CCCC[C@H](NC(=O)CNC(=O)CNC(=O)[C@H](CCCCNC(=O)[C@H](CC(=O)O)NC(=O)C(C)c1ccc(CC(C)C)cc1)NC(=O)CN1CCN(CC(=O)O)CCN(CC(=O)O)CCN(CC(=O)O)CC1)C(=O)N[C@H]1CC(=O)NCCCC[C@@H](C(N)=O)NC(=O)[C@H](Cc2c[nH]c3ccccc23)NC(=O)[C@H](CCCNC(=N)N)NC(=O)[C@@H](Cc2ccccc2)NC(=O)[C@H](Cc2c[nH]cn2)NC1=O` (some centres unmarked) [lutetium-177 labelled] is reported as 0.38 ± 0.17 %ID/g (C57 mice, tumour-bearing, bone; 2 h).

Some of these lines once more:
For `CCCC[C@H](NC(=O)COCCOCCNC(=O)CN1CCN(CC(=O)O)CCN(CC(=O)O)CC1)C(=O)N[C@H]1CC(=O)NCCCC[C@@H](C(N)=O)NC(=O)[C@H](Cc2c[nH]c3ccccc23)NC(=O)[C@H](CCCNC(=N)N)NC(=O)[C@@H](Cc2ccccc2)NC(=O)[C@H](Cc2c[nH]cn2)NC1=O` [fluorine-18 labelled], the tissue uptake was 11.7 ± 1.56 %ID/g (C57 mice B16-F10 melanoma, tumor; intravenous, 0.37 MBq, 2 h).
